Experimental data pooled from the literature.
Parts stem from different laboratories: compare values within a part only. Changes are numbered by the printed parent chain.

Study 1
Target: RING finger protein unkempt homolog, zinc fingers 1-6, GST-SBP tag (UNK, Homo sapiens, UniProt Q9C0B0, residues 30-357)
Method: RNA Bind-n-Seq
Form: RNA
Medium: in vitro
Concentration: not given
Setting: RNA with constant flanks, human-mouse chimeric sites, ends assumed
Relative to: input RNA pool
Direction: higher = stronger binding
Endpoint: bound/input enrichment
Target sequence (chain): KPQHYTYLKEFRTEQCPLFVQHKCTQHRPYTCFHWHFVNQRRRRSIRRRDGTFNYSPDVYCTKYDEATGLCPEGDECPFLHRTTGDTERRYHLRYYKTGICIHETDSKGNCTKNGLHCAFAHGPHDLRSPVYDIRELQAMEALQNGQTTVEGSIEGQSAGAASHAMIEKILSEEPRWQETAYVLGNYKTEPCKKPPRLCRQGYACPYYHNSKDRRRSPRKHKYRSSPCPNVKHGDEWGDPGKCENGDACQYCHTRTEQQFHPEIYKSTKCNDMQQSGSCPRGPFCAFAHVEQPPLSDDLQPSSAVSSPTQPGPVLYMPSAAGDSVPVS
Sequence = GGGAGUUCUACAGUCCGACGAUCACCUCCCCCUCCCGCCUCACCCCACCCAAGAAAGAAAGAAAGUUUUUGGCGUUUCUUUUCCUUCCCCAGUUAGAAUUAUUACAGUUUCCCCCGCAAGGGUCUAUCGAAGGGCUUGACGGACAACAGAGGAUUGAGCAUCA; value = 33.8 ratio
Sequence = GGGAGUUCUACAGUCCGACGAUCGAUAGGAAAAGCUUGUUGGAGACCCGCUUGCAUGUCACUGGUAGAGAACUGAGGUCCCAAAUAGCUGAAACUUUCGGAUUUCAAGAAAAUUACAUCAAGAUCGUAAUAAAUAAGAAACAGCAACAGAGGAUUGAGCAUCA; value = 0.782 ratio
Sequence = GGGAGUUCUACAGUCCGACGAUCAAAGAACCUCUCUCUGAAGAAGAGGAAGAAGACAAUGAUGAUGUUGAACCCAUUUCUGAAUUUCGAUUUGUGCCUAGUGAUAAGUCAGCAUUGGAGGCGAUGUUCACAGCAAUGUGUGAGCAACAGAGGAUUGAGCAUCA; value = 0.374 ratio
Sequence = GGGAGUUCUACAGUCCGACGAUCGAUCCACAGUGGUCUGAGGAGCAACUCAUUGCUGCAAAAUUUUGCUUUGCUGGCCUUGUUAUAGGGCAGACUGAAGUGGAUAUCAUGAGUCAUGCCACACAAGCUAUUUUUGAAAUUCUGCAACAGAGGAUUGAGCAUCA; value = 0.159 ratio
Sequence = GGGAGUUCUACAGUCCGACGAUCAAAGUGGACUAUGGCGAGUACAUGGAUAAAAACAAUGUGAGGCGGCAAGCAACAACAAUCAUAGCUGAUAACAUUAUAUUUCUGAGUGACCAGACGAAAGAGAAGGAAUAGAACGGAUGACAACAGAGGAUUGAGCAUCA; value = 2.4 ratio
Sequence = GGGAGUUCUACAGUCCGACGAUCAUUGUUGAAGCUAACCCACUUUUAGAAGCAUUUGGAAAUGCAAAGACUGUUCGCAACAAUAAUAGCAGUCGAUUUGGGAAAUUUGUAGAAAUUCAUUUCAAUGAAAAGAGUUCGGUUGUUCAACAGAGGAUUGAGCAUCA; value = 0.459 ratio
Sequence = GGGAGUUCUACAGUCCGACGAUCACACAAUAUGAGACCAACAGCAUGGACUUCAAAGUUGGGGCAGAUGGGACAGUCUUCGCCACCCGGGAGCUGCAGGUCCCCUCAGAGCAGGUGGCGUUCACGGUGACUGCAUGGGACAGCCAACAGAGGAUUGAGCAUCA; value = 0.238 ratio
Sequence = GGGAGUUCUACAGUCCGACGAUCGCUCCUCCCCGCUCUGCAGCCUGGGGACUUUUGGCAACAUUUUUUUUCCAGCUUUCUUUUAAAACUCUCAGUGUAACUGUAUCCCGUGACAUUUCAUUUUUUUUAAAUAGUGUAUUUUUUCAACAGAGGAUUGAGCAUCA; value = 7.4 ratio
Sequence = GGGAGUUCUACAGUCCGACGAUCCACACACUCUUCUGCGGGACCCUCAUCCUGCAGGCCCGGGCCUAUGUGGGACCGCACGUCCUGGCAGUGGUGACUCGCACAGGGUUCUGCACGGCAAAAGGGGGCCUGGUGAGCUCCAUCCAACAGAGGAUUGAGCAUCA; value = 0.0915 ratio
Sequence = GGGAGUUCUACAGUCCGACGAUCUCCCAAAUUAUAAGGCACCUUGAAAUAUUGAGACAAACACUCCACACACAGGGAAGGCGAUAACAUUGUACAUUGGUUUACAUUUUUUCCCCCUGUGGAUUUUUCUAGAGGUCAUAGUGCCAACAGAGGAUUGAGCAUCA; value = 0.246 ratio
Sequence = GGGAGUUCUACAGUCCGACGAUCGAGUCGAGCAAACUUGAAACAAUUCGUUAUCUUGCAGAGCUUCGGUGCACUUGCUUGGCGAUAGCAUUGGGGUUUUAUAGGUUCUGGAAGGAGAACUGACGAUGAUGCUGCCGCUGCUGCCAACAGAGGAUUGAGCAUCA; value = 0.332 ratio

Study 2
Target: Ras GTPase-activating protein-binding protein 1, C-terminal RGG region (G3BP1, Homo sapiens, UniProt Q13283)
UniProt Q13283, sequence (whole entry, looked up): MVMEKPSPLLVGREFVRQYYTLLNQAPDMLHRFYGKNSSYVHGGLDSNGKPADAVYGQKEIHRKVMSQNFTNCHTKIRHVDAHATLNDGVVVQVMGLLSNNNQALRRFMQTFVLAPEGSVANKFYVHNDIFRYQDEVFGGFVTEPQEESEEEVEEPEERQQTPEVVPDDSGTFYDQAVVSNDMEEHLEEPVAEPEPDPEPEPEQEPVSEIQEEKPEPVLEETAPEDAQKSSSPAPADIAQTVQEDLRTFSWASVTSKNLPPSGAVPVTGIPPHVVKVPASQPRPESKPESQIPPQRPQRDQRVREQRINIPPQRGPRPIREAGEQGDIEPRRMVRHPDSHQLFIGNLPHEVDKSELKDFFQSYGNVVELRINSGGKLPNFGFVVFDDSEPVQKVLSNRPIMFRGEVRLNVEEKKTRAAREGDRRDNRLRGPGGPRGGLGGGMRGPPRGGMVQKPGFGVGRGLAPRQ
Method: RNA Bind-n-Seq
Form: RNA
Medium: in vitro
Concentration: 1 µM
Setting: whole 134-nt RNA, ends assumed
Together with: 150 mM KCl
Relative to: input library
Direction: higher = stronger binding
Endpoint: log2 enrichment
Sequence = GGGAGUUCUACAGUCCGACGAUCUAACUUUAGAGGAGGAUCUGAUGGAUAUGGCAGUGGACGUGAAUUUGGGGAUGGCUAUAAUGGGUAUGGAGGAGGACCUGGAGGUGGCAAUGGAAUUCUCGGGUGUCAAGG; value = -1.24
Sequence = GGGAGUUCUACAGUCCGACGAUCAGUCCUGUGCUACACAUCGUAUGUACCGAAUCGGAAAAAGGGGAAAAAGGAAAAAGGGAAAGUAUUAUGUUACGCCGUUCGGAUCUGCACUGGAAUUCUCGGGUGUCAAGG; value = -1.71
Sequence = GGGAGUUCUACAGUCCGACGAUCUAGUCACCUACUGCCACCUUCGAAAAACACGGAGAGCACCUACCCAGAGGAGAAGGUAGAUUUGGAGUAAGCCGCCGUCGACAUAAUUCCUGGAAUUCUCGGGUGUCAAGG; value = -0.479
Sequence = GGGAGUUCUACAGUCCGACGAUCCUCAAGUCCUGUGCUACACAUCGUAUGUACCGAAUCGGAGGAAAAAGGAAAGGAAAGUAUUAUGUUACGCCGUUCGGAUCUGCACUUCCAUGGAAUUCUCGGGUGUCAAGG; value = -1.3
Sequence = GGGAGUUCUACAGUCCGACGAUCCCUGUGCUACACAUCGUAUGUACCGAAUCGGGGAAAGGGGUUUUUGGGGAAAAAAAGGGGAAAGUAUUAUGUUACGCCGUUCGGAUCUGCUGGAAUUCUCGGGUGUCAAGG; value = 0.387
Sequence = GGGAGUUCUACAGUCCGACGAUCCAAGUCCUGUGCUACACAUCGUAUGUACCGAAUCGGGUUUUGGUUUUGGUUUUGGGAAAGUAUUAUGUUACGCCGUUCGGAUCUGCACUUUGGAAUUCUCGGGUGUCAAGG; value = -1.77
Sequence = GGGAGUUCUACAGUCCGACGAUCCAAGUCCUGUGCUACACAUCGUAUGUACCGAAUCGGGUUUUGGUUUUGGUUUUGGAAAGUAUUAUGUUACGCCGUUCGGAUCUGCACUUCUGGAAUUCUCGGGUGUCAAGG; value = -1.57
Sequence = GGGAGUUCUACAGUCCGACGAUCCUCAAGUCCUGUGCUACACAUCGUAUGUACCGAAUCGGGCCGGGGCCGGCCGGAAAGUAUUAUGUUACGCCGUUCGGAUCUGCACUUCCAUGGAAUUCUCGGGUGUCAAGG; value = -0.945
Sequence = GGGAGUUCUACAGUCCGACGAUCAGUCCUGUGCUACACAUCGUAUGUACCGAAUCGGAAAAAGGAAAAAGGGGAAAAAGGAAAGUAUUAUGUUACGCCGUUCGGAUCUGCACUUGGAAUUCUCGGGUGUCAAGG; value = -1.73
Sequence = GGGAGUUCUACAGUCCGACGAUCGUCCUGUGCUACACAUCGUAUGUACCGAAUCGGGCCCCCCGGCCCCCCGGCCCCCCGGAAAGUAUUAUGUUACGCCGUUCGGAUCUGCACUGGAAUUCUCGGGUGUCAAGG; value = -0.986

Study 3
Target: RNA binding protein fox-1 homolog 2, RRM domain, GST-SBP tag (RBFOX2, Homo sapiens, UniProt O43251-10, residues 100-194)
Method: RNA Bind-n-Seq
Form: RNA
Medium: in vitro
Concentration: 365 nM
Setting: natural RNA segment, single round, ends assumed
Relative to: no-protein control
Direction: higher = stronger binding
Endpoint: RBNS enrichment (R)
Sequence = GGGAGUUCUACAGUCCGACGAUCCAUUCCCAUUGGACUCAUGCACCUCCCGGAUGGUUUUUGUUUUUUUCGGGGGUUCUUUGGGGUUUGUUUGUUUGCUUCUUUUCCAGAGUGUGGAAAGUCUACAGUGCAGAUGGAAUUCUCGGGUGCCAA; value = 3.09
Sequence = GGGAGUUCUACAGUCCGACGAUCUGAAUCAUGUACACAGCAGGAGUGGUCACAGUAAAAACUGGUAGCAGGAAAAUUUGAAAGGGUUUGAAAUGCCCUGAAAUCAGGGCAAGUACUUAAUGGGGAAAAAAAAGUGGAAUUCUCGGGUGCCAA; value = 0.928
Sequence = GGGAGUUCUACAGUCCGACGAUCUUCUAUUUGUCAGCUGUUGCUGCUGAGCCUGCUGGUGAACACCAUUGCAAGCAGUUGCUGAGCCUGCUGGUGAACACCAUUGCAAGCAGUUGCUGAGCCUGCUCGUGAACUGGAAUUCUCGGGUGCCAA; value = 9.56
Sequence = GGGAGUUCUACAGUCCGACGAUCUGAUUCCUCAAGAAUGAAAUGAAGGCACUACAUUGAAAUAUGUUUUGUAUAAAUUUGUCAUGUUGAACAGCAUUUUAGCAUGGUAAGUUCCCUUAGCUAUAUGAAUUUUGUGGAAUUCUCGGGUGCCAA; value = 0.506
Sequence = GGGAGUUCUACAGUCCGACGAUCAACCAAAUUCACCGUUAGGAAACAGUGAGCUCCGGCCCCACCUCGUGAACACAAAGCCUCGGAUCAGCCUUGAGAGAGGCCACACUACACACACCAGAUGGCAUCCUUGGUGGAAUUCUCGGGUGCCAA; value = 0.408
Sequence = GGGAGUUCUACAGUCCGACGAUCAGGAAAACCAUGACAGGCAAAUGCAUUUCCUCUGGAGUUUGAGACCCUGACAAACAACAGGUGGCAUCUGGUGUGCUGUUCUUGAGUUUUCGUUUAGGAUUAGUUGAGUUUGGAAUUCUCGGGUGCCAA; value = 0.448
Sequence = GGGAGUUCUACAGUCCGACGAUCUGCAGUUGAGCAAGGAAGCUGAGGUUGGAACCAUUAAACUAUUUCUUCCCAUUUUCAAAAGGACCUUAGAGUAGAGUGGGCUUUAGAAAAGGGCUUCACCCAGCUGCUUGUGGAAUUCUCGGGUGCCAA; value = 1.02
Sequence = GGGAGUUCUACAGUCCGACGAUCAGCAGCGACAUCCACUCGCCAUUUGCUGACAUGAGAUUGGGAGGAAGAAUCCAGAGGUGAAGAGGGAGACGGCUCUUAGCUGCGUUCAAGGCGGGGCCCUCGGGAGCCCAUGGAAUUCUCGGGUGCCAA; value = 0.58
Sequence = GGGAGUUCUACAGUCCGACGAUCCAGCCUCCCGAGUAGCUGGGAUUACAGGCACCCACCACCACGCUCAGCUAAUUUUUGUAUUUUUAGUAGAGAUGGGAUUUUGUCAUGUUGGCUAGGCUAGUCUCGAAUUCUGGAAUUCUCGGGUGCCAA; value = 1.14

Study 4
Target: ABI1, truncated, D143A, DHFR fusion (Arabidopsis thaliana)
Method: DHFR PCA, deep sequencing
Medium: yeast
Setting: methotrexate growth selection, single substitutions
Together with: (+)-ABA 0.39 µM
Relative to: wild-type fitted maximum
Direction: higher = stronger binding
Endpoint: relative binding score
Parent: PYL1, truncated, DHFR fusion (Arabidopsis thaliana); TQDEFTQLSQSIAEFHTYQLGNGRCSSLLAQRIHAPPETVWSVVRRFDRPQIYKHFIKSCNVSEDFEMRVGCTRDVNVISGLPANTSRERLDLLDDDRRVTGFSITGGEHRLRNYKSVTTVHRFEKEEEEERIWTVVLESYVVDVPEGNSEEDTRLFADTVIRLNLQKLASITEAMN
Variant = L28P; value = -6.66%
Variant = R46Q; value = 56.6%
Variant = G107L; value = -5.29%
Variant = V40L; value = -2.07%
Variant = W41D; value = -18.4%
Variant = E127M; value = 53.8%
Variant = G21P; value = 32.2%
Variant = H122E; value = -9.28%
Variant = L29R; value = 0.422%
Variant = K58P; value = -2.69%
Variant = G71Q; value = -6.02%
Variant = I105L; value = -14%
Variant = E67G; value = 9.84%
Variant = L169I; value = -2.6%
Variant = D153V; value = -5.22%
Variant = E131A; value = 51.4%

Repeated from above (study 3):
Sequence = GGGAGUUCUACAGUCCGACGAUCUGAAUCAUGUACACAGCAGGAGUGGUCACAGUAAAAACUGGUAGCAGGAAAAUUUGAAAGGGUUUGAAAUGCCCUGAAAUCAGGGCAAGUACUUAAUGGGGAAAAAAAAGUGGAAUUCUCGGGUGCCAA; value = 0.928
Sequence = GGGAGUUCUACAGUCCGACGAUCCAUUCCCAUUGGACUCAUGCACCUCCCGGAUGGUUUUUGUUUUUUUCGGGGGUUCUUUGGGGUUUGUUUGUUUGCUUCUUUUCCAGAGUGUGGAAAGUCUACAGUGCAGAUGGAAUUCUCGGGUGCCAA; value = 3.09
Sequence = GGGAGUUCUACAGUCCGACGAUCUGCAGUUGAGCAAGGAAGCUGAGGUUGGAACCAUUAAACUAUUUCUUCCCAUUUUCAAAAGGACCUUAGAGUAGAGUGGGCUUUAGAAAAGGGCUUCACCCAGCUGCUUGUGGAAUUCUCGGGUGCCAA; value = 1.02
